# Published values from different studies.
# Each numbered part is a random draw from the data of one study; scales do not carry over between parts. Positions count from the first letter of the parent shown.
# Sequence of UniProt Q00535 (whole entry, looked up): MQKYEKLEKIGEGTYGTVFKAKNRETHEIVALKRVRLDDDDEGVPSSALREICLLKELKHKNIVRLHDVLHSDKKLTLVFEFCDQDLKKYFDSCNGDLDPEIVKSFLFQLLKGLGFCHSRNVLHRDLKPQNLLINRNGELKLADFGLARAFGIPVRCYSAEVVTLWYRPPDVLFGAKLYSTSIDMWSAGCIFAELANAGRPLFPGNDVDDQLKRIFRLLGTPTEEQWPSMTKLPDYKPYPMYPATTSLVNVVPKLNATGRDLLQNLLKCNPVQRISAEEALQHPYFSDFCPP
# Sequence of UniProt Q00534 (whole entry, looked up): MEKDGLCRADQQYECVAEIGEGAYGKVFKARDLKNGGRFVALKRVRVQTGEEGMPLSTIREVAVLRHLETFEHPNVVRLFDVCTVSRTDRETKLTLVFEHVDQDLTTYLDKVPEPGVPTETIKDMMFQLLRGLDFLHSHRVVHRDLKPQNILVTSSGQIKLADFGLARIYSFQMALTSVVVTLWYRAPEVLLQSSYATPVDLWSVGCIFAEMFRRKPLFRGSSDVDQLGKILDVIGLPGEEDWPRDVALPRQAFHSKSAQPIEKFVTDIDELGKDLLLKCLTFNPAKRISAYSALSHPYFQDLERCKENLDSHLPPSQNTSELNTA
# Sequence of UniProt Q9UBS0 (whole entry, looked up): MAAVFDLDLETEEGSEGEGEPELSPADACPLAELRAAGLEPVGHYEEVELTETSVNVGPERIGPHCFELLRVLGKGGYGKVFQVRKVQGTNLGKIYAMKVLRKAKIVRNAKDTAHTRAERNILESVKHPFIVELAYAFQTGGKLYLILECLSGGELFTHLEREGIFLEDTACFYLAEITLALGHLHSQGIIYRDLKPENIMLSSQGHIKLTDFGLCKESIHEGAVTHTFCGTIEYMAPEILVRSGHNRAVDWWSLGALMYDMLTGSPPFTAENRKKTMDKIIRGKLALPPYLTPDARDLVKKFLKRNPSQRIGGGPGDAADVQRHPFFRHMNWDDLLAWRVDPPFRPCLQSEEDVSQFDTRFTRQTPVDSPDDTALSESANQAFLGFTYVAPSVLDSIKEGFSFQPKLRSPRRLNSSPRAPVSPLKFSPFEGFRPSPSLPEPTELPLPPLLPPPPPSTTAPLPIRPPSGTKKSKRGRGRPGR
# Sequence of UniProt P16591 (whole entry, looked up): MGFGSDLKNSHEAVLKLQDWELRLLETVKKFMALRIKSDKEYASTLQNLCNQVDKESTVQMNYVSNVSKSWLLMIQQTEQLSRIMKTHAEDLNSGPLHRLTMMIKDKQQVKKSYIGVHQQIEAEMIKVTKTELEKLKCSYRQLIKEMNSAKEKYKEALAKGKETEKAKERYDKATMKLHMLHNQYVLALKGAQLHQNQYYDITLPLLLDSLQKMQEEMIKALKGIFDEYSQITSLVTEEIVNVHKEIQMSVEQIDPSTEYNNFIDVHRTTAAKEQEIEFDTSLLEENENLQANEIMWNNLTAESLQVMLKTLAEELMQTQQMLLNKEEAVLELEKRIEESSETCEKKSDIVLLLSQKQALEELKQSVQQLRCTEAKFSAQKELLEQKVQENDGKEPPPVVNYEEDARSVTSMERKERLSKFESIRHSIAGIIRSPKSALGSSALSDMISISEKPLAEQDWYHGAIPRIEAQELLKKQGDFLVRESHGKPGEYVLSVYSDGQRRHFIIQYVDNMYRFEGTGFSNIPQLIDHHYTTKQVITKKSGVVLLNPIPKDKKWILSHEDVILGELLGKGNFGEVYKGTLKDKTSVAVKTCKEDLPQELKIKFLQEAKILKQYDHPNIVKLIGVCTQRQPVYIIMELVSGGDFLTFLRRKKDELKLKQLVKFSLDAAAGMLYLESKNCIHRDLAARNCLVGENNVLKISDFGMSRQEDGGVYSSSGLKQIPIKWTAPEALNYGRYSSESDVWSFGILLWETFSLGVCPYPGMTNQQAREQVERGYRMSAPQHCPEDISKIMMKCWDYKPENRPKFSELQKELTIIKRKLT
# Sequence of UniProt P28335 (whole entry, looked up): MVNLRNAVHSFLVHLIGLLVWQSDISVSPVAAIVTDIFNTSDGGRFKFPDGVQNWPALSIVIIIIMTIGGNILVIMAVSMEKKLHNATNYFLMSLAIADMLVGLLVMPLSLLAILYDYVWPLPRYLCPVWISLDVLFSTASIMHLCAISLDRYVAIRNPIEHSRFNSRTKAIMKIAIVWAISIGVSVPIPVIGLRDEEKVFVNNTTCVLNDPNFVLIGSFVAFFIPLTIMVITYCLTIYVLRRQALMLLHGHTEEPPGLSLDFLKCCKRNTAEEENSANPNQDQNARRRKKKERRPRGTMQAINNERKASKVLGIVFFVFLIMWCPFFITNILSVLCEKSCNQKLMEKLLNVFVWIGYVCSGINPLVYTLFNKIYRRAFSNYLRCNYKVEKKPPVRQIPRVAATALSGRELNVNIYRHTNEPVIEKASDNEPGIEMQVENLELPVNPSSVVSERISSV
# Sequence of UniProt P34947 (whole entry, looked up): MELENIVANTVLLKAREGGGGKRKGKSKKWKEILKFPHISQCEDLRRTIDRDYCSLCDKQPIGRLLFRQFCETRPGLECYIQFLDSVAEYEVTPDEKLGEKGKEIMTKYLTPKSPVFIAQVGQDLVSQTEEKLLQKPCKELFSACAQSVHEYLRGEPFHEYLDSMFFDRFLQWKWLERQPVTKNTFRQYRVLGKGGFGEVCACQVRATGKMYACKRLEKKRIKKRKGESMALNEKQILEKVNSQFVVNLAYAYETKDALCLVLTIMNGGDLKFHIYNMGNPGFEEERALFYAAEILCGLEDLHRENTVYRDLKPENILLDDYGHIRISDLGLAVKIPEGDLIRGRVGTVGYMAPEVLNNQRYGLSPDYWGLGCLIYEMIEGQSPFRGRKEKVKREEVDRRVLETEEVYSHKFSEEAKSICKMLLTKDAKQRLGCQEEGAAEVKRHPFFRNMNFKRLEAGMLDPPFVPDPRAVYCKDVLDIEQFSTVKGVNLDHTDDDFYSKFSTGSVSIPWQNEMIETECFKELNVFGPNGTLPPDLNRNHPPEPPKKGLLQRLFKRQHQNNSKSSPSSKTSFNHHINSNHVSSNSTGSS
# Sequence of UniProt Q05513 (whole entry, looked up): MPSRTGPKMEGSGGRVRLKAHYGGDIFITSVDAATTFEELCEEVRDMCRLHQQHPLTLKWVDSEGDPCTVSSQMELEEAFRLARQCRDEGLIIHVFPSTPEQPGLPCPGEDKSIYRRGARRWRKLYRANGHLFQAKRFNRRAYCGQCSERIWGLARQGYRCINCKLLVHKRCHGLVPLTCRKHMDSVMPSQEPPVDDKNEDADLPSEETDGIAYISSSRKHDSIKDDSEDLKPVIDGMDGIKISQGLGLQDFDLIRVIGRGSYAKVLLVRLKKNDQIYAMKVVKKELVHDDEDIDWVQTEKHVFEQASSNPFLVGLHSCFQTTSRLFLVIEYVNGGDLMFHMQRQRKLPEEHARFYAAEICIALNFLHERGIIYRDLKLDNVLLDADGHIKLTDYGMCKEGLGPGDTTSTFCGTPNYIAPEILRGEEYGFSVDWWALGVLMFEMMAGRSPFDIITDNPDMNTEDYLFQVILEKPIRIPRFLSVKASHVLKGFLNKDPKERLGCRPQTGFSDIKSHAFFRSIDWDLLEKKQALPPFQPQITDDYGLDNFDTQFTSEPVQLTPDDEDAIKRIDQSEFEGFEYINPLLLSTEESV
# Sequence of UniProt P35626 (whole entry, looked up): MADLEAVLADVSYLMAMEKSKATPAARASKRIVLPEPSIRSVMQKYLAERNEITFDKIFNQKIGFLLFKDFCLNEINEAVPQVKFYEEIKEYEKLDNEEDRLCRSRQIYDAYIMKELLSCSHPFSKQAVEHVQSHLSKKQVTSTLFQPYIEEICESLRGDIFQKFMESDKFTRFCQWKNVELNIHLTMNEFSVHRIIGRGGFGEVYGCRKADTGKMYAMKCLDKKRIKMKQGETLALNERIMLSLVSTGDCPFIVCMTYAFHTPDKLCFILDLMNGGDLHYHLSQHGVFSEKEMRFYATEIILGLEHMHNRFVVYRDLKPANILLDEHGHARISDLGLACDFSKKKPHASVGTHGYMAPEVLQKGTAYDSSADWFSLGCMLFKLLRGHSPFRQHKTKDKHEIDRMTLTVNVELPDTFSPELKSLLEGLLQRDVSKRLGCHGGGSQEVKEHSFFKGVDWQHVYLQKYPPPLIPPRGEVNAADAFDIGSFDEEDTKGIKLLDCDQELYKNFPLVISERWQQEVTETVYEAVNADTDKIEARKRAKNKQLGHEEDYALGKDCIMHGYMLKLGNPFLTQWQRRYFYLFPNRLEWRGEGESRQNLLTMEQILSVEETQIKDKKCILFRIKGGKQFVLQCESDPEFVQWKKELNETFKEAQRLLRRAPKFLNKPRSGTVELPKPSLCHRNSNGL

# Block 1
# Target: CCNB2, cyclin fold, Cln2 fusion (human)
# Technique: yeast growth competition, sequencing
# Medium: yeast
# Setting: weak parent motif
# Relative to: not given
# Direction: higher = stronger binding
# Parent: viral docking peptide; KGVKRKLFAEDSS
Change,normalised enrichment score
R5A,0.628
S12F,1.01
E10R,0.749
V3L,0.707
E10K,0.631
K4C,0.402
K6S,0.523
V3E,0.325

# Block 2
# Species: human
# Medium: microsomes or S9
# Tested at: 2 µM
# Time: 0.5 h
Structure (SMILES),remaining compound
Cc1nc(Cl)c(Cl)n1Cc1ccc(Cl)nc1,65.9%
Cc1cc(C#N)cc(C(=O)NCc2ccc3c(c2)OCO3)c1NC(=O)c1cc(Br)nn1-c1ncccc1Cl,41.8%
C/C(NN1CCCCCC1)=C1\C(=O)N(C2CCCCC2)C(=O)N=C1O,5.87%

# Block 3
# Cell line: mouse MPNST tumor cells
# Technique: high-content immunofluorescence imaging
# Measured: nuclear SOX9
# Tested at: 10 µM
# Time: 12 h
# Setting: mean of 2 replicates
# Relative to: DMSO control
# Direction: higher = more nuclear SOX9
Structure (SMILES),nuclear SOX9 intensity
CN/C(=N\S(=O)(=O)c1ccc(Cl)cc1)N1C[C@H](c2ccccc2)C(c2ccc(Cl)cc2)=N1,101 % of DMSO
CC(C)c1c(CN(C)C(C)Cc2ccccc2)n(C)n(-c2ccccc2)c1=O (centres unmarked),95.2 % of DMSO
CC1=NN=C(c2ccc(N)cc2)c2cc3c(cc2C1)OCO3,100 % of DMSO
C#C[C@]1(O)CC[C@H]2[C@@H]3CCC4=CC(=O)CCC4=C3C=C[C@@]21CC,85.4 % of DMSO

# Block 4
# Target: Calcium/calmodulin-dependent protein kinase type II subunit alpha (CAMK2A, Homo sapiens, UniProt Q9UQM7)
# Sequence of UniProt Q9UQM7 (whole entry, looked up): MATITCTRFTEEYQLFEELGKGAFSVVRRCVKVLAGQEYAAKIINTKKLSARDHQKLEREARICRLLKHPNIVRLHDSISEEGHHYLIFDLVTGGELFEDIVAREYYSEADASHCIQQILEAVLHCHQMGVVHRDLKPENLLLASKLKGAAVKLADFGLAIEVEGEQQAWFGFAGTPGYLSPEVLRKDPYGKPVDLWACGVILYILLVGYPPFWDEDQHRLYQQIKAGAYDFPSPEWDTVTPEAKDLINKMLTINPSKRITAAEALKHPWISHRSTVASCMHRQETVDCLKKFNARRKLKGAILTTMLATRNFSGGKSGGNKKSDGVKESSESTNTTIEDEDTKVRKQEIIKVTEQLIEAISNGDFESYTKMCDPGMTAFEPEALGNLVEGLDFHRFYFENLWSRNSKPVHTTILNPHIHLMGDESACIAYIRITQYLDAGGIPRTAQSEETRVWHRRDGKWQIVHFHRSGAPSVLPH
# Read-out: enzyme activity
# Mode: inhibitor
# Tested at: 10 µM
SMILES,inhibition
CN1Cc2c(ccc3c2OCO3)-c2ccc3cc4c(cc3c21)OCO4,-7%
CCN1C[C@]2(COC)CC[C@H](OC)[C@]34C1[C@H]([C@H](OC)[C@H]23)[C@@]1(OC(C)=O)C[C@H](OC)[C@@]2(O)C[C@@H]4[C@@H]1[C@H]2OC(=O)c1ccc(OC)cc1,-44%
COc1ccc2c(c1OC)C(=O)O[C@@H]2[C@H]1c2cc3c(cc2CCN1C)OCO3,40%
CC(=O)O[C@H]1[C@H]2O[C@]23[C@@H]2CC[C@]4(O)C[C@@H](O)CC[C@]4(C)[C@H]2CC[C@]3(C)[C@H]1c1ccc(=O)oc1,-10%
C/C=C(\C)C(=O)O[C@H]1C[C@@H](OC(C)=O)[C@@]2(C(=O)OC)CO[C@H]3[C@@H](O)[C@@](C)([C@]45O[C@@]4(C)[C@H]4C[C@@H]5O[C@@H]5OC=C[C@@]54O)[C@H]4[C@]1(CO[C@]4(O)C(=O)OC)[C@@H]32,-3%

# Block 5
# Structure (SMILES): O=c1[nH]c2ccccc2n1C1CCN(Cc2ccc(-c3[nH]c4cc5ncnc5cc4nc3-c3ccccc3)cc2)CC1
# Read-out: cell-free assay
# Tested at: 0.5 µM
target,remaining signal [%]
"MAP3K7 (Homo sapiens, UniProt O43318)",84.1
"HIPK3 (Homo sapiens, UniProt Q9H422)",102
"NEK3 (Homo sapiens, UniProt P51956)",97.2
"Cyclin-dependent kinase 3, with cyclin E (CDK3, Homo sapiens, UniProt Q00526)",97.5
"PASK (Homo sapiens, UniProt Q96RG2)",110
"Cyclin-dependent kinase 6, with cyclin D3 (CDK6, Homo sapiens, UniProt Q00534)",99.1
"RPS6KB2 (Homo sapiens, UniProt Q9UBS0)",102
"PBK (Homo sapiens, UniProt Q96KB5)",103
"Cyclin-dependent kinase 5, with p25 (CDK5, Homo sapiens, UniProt Q00535)",96.9
"ULK1 (Homo sapiens, UniProt O75385)",96.7
"PKN2 (Homo sapiens, UniProt Q16513)",73.2
"ACVRL1 (Homo sapiens, UniProt P37023)",105
"PRKCG (Homo sapiens, UniProt P05129)",92.2
"PRKCZ (Homo sapiens, UniProt Q05513)",102
"Cyclin-dependent kinase 6, with cyclin D1 (CDK6, Homo sapiens, UniProt Q00534)",105
"TGFBR1 (Homo sapiens, UniProt P36897)",102
"Cyclin-dependent kinase 9, with cyclin T1 (CDK9, Homo sapiens, UniProt P50750)",93.2
"FER (Homo sapiens, UniProt P16591)",99.6
"GRK5 (Homo sapiens, UniProt P34947)",109
"CLK3 (Homo sapiens, UniProt P49761)",111
"GRK3 (Homo sapiens, UniProt P35626)",87.3
"PRKCD (Homo sapiens, UniProt Q05655)",98.8
"FGR (Homo sapiens, UniProt P09769)",95.7
"DYRK4 (Homo sapiens, UniProt Q9NR20)",109
"Cyclin-dependent kinase 5, with p35 (CDK5, Homo sapiens, UniProt Q00535)",91.9

# Block 6
# Organism: Sarcocystis neurona
# Read-out: parasite growth
# Tested at: concentration not given
# Setting: second screen
# Relative to: untreated
SMILES,log2 fold change
COC(=O)N1CCN(C(=O)Cc2ccc(Cl)c(Cl)c2)C(CN2CCCC2)C1.O=C(O)/C=C/C(=O)O (centres unmarked),0.31
COc1cc(N)c(Cl)cc1C(=O)NC1CN2CCC1CC2.Cl (centres unmarked),0.35
C[N+]1(C)CCN(c2ccccc2)CC1.[I-],0.2
CCCCCCCCCOc1ccc2[nH]cc(CCN)c2c1,0.17
C=C(C)CN1CC[C@]23c4c5ccc(O)c4O[C@H]2c2[nH]c4ccccc4c2C[C@@]3(O)C1C5.Cl.O,0.51
Cl.OC1CCCCC1N1CCC(c2ccccc2)CC1 (racemic),0.46
Cl.O.Oc1ccc2c3c1O[C@H]1c4[nH]c5ccccc5c4C[C@@]4(O)[C@@H](C2)N(CC2CC2)CC[C@]314,0.27

# Other studies, line by line
Structure (SMILES),target,read-out,technique,tested at,endpoint,value
Cc1c(N2CCNCC2)nc2ccc(Br)cc2c1C(=O)NC[C@H](CCC(=O)O)c1ccccc1Cl,"DRD4 (Homo sapiens, UniProt P21917)",ligand displacement,,10 µM,inhibition,5.89%
O=C(Nc1ccc(Oc2ccc(F)cc2)cc1)N1CCc2ncccc2[C@H]1c1ccc(F)cc1,"CRK2 (Plasmodium falciparum, UniProt P61075)",cell-free assay,competition with immobilised ligand,1 µM,remaining binding,87%
CNC(=O)Nc1ccc2c(c1)[C@]1(CC2)OC(=O)N(CC(=O)N(Cc2ccc(F)cc2)[C@@H](C)C(F)(F)F)C1=O,"HTR2C (Homo sapiens, UniProt P28335)",binding,radioligand binding,10 µM,inhibition,-3.43%
O=C(NCc1ncc(C(F)(F)F)cc1Cl)c1ccc2c(c1)C1(CCS(=O)(=O)CC1)[C@@H](C1CC1)N2S(=O)(=O)c1ccc(F)cc1,"CDPK1 (Plasmodium falciparum, UniProt P62344)",cell-free assay,competition with immobilised ligand,1 µM,remaining binding,100%

# Some of these lines once more (block 6):
SMILES,log2 fold change
COC(=O)N1CCN(C(=O)Cc2ccc(Cl)c(Cl)c2)C(CN2CCCC2)C1.O=C(O)/C=C/C(=O)O (centres unmarked),0.31
COc1cc(N)c(Cl)cc1C(=O)NC1CN2CCC1CC2.Cl (centres unmarked),0.35
C[N+]1(C)CCN(c2ccccc2)CC1.[I-],0.2
CCCCCCCCCOc1ccc2[nH]cc(CCN)c2c1,0.17
C=C(C)CN1CC[C@]23c4c5ccc(O)c4O[C@H]2c2[nH]c4ccccc4c2C[C@@]3(O)C1C5.Cl.O,0.51
Cl.OC1CCCCC1N1CCC(c2ccccc2)CC1 (racemic),0.46
Cl.O.Oc1ccc2c3c1O[C@H]1c4[nH]c5ccccc5c4C[C@@]4(O)[C@@H](C2)N(CC2CC2)CC[C@]314,0.27
